Measurements pooled from the literature.
Compare with care: the assays were run in different laboratories. Numbers after ± are the reported error.
B1: enzyme (Bacillus pumilus, UniProt A8FFI9); chain EARSIAWSVDEFFKNREGTFVIQEVKEKSPWVYNKKRAKERFAPQSTFKVANALIGLQTGAVRDEYDIKYWDGVKREIDNWNRDHTLGSGMRDSVVWYYQAMARDIGEERMNHWVKAIHYGNKDISGGIDQFWLSSTLRISPIEQVRFLKQLYEETLPFDLKNMRTVKRMMVQEEEKHATLYGKTGSGSDIGWYVGFIKHEHKTYILATNIKGTGIEAKDITYRILKKYHLMEASV
B2: GlcAK1 (Arabidopsis thaliana, UniProt A0A1I9LRK4); chain KRVREEKMDPNSTVSGDGQATAAIEHRSFARIGFLGNPSDVYFGRTISLTIGNFWASVKLEPSEHLVIKPHPFHDLVQFTSLDHLLNRLQNEGYYGGVRLLMAICKVFRNYCKENDIQLHQANFSLSYDTNIPRQTGLSGSSAIVSAALNCLLDFYNVRHLIKVQVRPNIVLSAEKELGIVAGLQDRVAQVYGGLVHMDFSKEHMDKLGHGIYTPMDISLLPPLHLIYAENPSDSGKVHSMVRQRWLDGDEFIISSMKEVGSLAEEGRTALLNKDHSKLVELMNLNFDIRRRMFGDECLGAMNIEMVEVARRVGAASKFTGSGGAVVVFCPEGPSQVKLLEEECRKAGFTLQPVKIAPSCLNDSDIQTL
Sequence of UniProt Q8ZMX2 (whole entry, looked up): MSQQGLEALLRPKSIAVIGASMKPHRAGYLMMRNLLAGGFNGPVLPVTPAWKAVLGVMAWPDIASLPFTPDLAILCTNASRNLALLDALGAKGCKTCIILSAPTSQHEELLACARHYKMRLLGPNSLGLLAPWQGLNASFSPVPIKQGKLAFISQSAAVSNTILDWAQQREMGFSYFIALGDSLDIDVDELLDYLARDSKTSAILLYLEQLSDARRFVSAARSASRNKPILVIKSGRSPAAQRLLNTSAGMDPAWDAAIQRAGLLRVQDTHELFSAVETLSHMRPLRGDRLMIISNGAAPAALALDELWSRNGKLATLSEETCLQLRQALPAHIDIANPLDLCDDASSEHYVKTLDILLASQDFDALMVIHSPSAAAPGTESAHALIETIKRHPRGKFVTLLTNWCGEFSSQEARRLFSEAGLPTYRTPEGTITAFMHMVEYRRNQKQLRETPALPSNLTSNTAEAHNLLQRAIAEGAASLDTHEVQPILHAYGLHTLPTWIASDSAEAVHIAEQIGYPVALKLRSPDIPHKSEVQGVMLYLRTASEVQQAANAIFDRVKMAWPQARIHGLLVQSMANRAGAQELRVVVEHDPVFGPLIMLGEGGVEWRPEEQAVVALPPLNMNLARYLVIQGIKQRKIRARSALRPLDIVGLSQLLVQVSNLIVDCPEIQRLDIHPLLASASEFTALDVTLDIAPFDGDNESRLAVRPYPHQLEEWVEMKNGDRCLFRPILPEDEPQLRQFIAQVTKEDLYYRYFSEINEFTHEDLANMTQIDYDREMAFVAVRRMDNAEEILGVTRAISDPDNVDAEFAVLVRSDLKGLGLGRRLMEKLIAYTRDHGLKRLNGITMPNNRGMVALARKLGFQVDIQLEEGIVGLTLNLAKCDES
Sequence of UniProt P27487 (whole entry, looked up): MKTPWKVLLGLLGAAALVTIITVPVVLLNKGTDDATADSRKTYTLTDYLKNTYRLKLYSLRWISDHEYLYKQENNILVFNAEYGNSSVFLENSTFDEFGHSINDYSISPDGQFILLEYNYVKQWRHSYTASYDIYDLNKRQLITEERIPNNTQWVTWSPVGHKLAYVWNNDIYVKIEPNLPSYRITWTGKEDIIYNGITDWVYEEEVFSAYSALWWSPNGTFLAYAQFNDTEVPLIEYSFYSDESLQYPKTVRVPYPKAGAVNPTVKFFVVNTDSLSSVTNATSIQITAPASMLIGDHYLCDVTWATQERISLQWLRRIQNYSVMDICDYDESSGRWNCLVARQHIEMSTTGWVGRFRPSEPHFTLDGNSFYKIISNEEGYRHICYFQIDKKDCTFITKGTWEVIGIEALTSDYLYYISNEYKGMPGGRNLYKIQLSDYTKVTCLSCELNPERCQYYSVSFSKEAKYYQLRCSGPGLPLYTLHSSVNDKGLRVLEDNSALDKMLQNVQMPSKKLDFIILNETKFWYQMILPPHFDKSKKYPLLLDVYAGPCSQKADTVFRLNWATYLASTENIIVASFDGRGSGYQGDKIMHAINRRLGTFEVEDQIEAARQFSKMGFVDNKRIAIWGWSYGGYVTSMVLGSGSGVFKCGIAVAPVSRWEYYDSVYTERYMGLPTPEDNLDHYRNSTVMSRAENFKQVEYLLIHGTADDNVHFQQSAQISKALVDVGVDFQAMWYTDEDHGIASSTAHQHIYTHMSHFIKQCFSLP

Substance = N=C(N)NCCC[C@@H]1NC(=O)[C@H](CCCCNC(=O)[C@H](CC(=O)O)NC(=O)[C@H](CC(=O)O)NC(=O)[C@H](CC(=O)O)NC(=O)CC[C@H](NC(=O)CCOCCOCCOCCOCCNC(=O)c2ccc(NN)nc2)C(=O)N[C@@H](CC(=O)O)C(=O)N[C@@H](CC(=O)O)C(=O)N[C@@H](CC(=O)O)C(=O)NCCCC[C@@H]2NC(=O)[C@@H](Cc3ccccc3)NC(=O)[C@H](CC(=O)O)NC(=O)CNC(=O)[C@H](CCCNC(=N)N)NC2=O)NC(=O)[C@@H](Cc2ccccc2)NC(=O)[C@H](CC(=O)O)NC(=O)CNC1=O [technetium-99m labelled]; test = γ-counting; system = female athymic nude mice, U-87 MG xenograft, eyes; setting = intravenous, 2 h; endpoint = tissue uptake; value = 0.54 ± 0.15 %ID/g
Substance = CCN1C(=CC=CC=CC2=[N+](CCCCCC(=O)NCCCC[C@H](NC(=O)CN3CCN(CC(=O)O)CCN(CC(=O)O)CCN(CC(=O)O)CC3)C(=O)NCC(=O)NCC(=O)N[C@@H](Cc3ccc(O)cc3)C(=O)NCC(=O)N[C@H]3CSSC[C@@H]4NC(=O)CNC(=O)[C@H](C)NC(=O)[C@H](CC(C)C)NC(=O)[C@@H]5CSSC[C@@H](C(=O)NCC(N)=O)NC(=O)[C@H](Cc6ccccc6)NC(=O)CNC(=O)[C@H](CC(N)=O)NC(=O)[C@@H]6CCCN6C(=O)CNC(=O)[C@H](CSSC[C@H](NC(=O)[C@H](CO)NC(=O)[C@H]([C@@H](C)O)NC(=O)[C@@H]6CCCN6C(=O)[C@H](C)NC(=O)[C@H](Cc6c[nH]c7ccccc67)NC(=O)[C@H](CC(=O)O)NC(=O)CNC(=O)[C@H](CCCNC(=N)N)NC(=O)CNC(=O)[C@H](CCC(N)=O)NC(=O)[C@@H]6CCCN6C3=O)C(=O)N[C@@H](CO)C(=O)N[C@@H](CCC(N)=O)C(=O)N[C@@H](CC(=O)O)C(=O)N[C@@H](CO)C(=O)N[C@@H](CC(=O)O)C(=O)N5)NC(=O)[C@H](C(C)C)NC4=O)c3ccc4c(S(=O)(=O)[O-])cc(S(=O)(=O)O)cc4c3C2(C)C)C(C)(C)c2c1ccc1c(S(=O)(=O)O)cc(S(=O)(=O)O)cc21 (single isomer, unassigned) [copper-64 labelled]; system = nude mouse, kidney; setting = intravenous, 100 µCi, 4 h; endpoint = tissue uptake; value = 80.9 ± 14.9 %ID/g
Substance = B1 (enzyme); target or system = [H][C@]12SCC(COC(C)=O)=C(C(=O)O)N1C(=O)[C@H]2NC(=O)CCC[C@@H](N)C(=O)O; test = steady-state kinetics; setting = pH 7; endpoint = kcat; value = 0.093 ± 0.003 s⁻¹
Substance = melittin; test = isothermal titration calorimetry; system = POPC/POPG LUVs 75:25%; setting = 100 µM, pH 7.0, 25 °C; endpoint = partitioning enthalpy; value = -2.7 kcal/mol
Substance = amyloid β-peptide (1–28); target or system = trypsin; test = substrate, LC-MS; setting = 10 µM, 4 h, pH 7.4, with: angiotensin III 20 µM, MINP(A); endpoint = peptide hydrolysed; value = 99%
Substance = COc1cccc2c1C(=O)c1c(O)c3c(c(O)c1C2=O)C[C@@](O)(C(=O)CO)C[C@@H]3O[C@H]1C[C@H](NC(=O)[C@@H]2CCCN2C(=O)CNC(=O)[C@H](CC(C)C)NC(=O)[C@H](C)NC(=O)CP(=O)(O)O)[C@H](O)[C@H](C)O1; system = mouse, E0771 tumour-bearing, kidney; setting = intravenous, 92 µmol/kg; endpoint = terminal half-life; value = 540 min
Substance = pat (Salmonella enterica, UniProt Q8ZMX2); target or system = CC(=O)SCCNC(=O)CCNC(=O)[C@H](O)C(C)(C)COP(=O)(O)OP(=O)(O)OC[C@H]1O[C@@H](n2cnc3c(N)ncnc32)[C@H](O)[C@@H]1OP(=O)(O)O; test = steady-state kinetics; setting = pH 7.5, 37 °C, apparent, sigmoidal fit, with: AcsC 400 µM; endpoint = K0.5; value = 10.3 µM
Substance = [123I]c1cncc(OC[C@@H]2CCN2)c1; test = SPECT; system = human, temporal lobe; setting = intravenous bolus, 7.35 mCi; scale = baseline: plasma; endpoint = tissue/plasma ratio; value = 27.9
Substance = CC[C@H]1CN2CCc3cc(OC)c(OC)cc3[C@@H]2C[C@@H]1C[C@@H]1c2cc(OC)c(OC)cc2CCN1C(=O)OCc1ccc(NC(=O)[C@@H]2CCCN2C(=O)[C@H](C)N)cc1; target or system = DPP4 (Homo sapiens, UniProt P27487); test = substrate, HPLC-MS; setting = 500 µM, 24 h, pH 7.8, 37 °C, 1% DMSO, with: DPPIV 30 nM; endpoint = emetine released; value = 98%
Substance = B2 (GlcAK1); target or system = Nc1ncnc2c1ncn2[C@@H]1O[C@H](COP(=O)(O)OP(=O)(O)OP(=O)(O)O)[C@@H](O)[C@H]1O; test = steady-state kinetics; setting = pH 7.5, 25 mM KCl, Hill fit, with: 1 mM GlcA; 10 mM MgCl2; endpoint = K0.5; value = 555 µM
Substance = N=C(N)NCCC[C@@H]1NC(=O)[C@H](CCCCNC(=O)CNC(=O)CNC(=O)CNC(=O)CC[C@H](NC(=O)CCOCCOCCOCCOCCNC(=O)c2ccc(NN)nc2)C(=O)NCC(=O)NCC(=O)NCC(=O)NCCCC[C@@H]2NC(=O)[C@@H](Cc3ccccc3)NC(=O)[C@H](CC(=O)O)NC(=O)CNC(=O)[C@H](CCCNC(=N)N)NC2=O)NC(=O)[C@@H](Cc2ccccc2)NC(=O)[C@H](CC(=O)O)NC(=O)CNC1=O [technetium-99m labelled]; test = γ-counting; system = female athymic nude mice, U-87 MG xenograft, heart; setting = intravenous, 2 h; endpoint = tissue uptake; value = 1.02 ± 0.13 %ID/g
Substance = COc1cccc2c1C(=O)c1c(O)c3c(c(O)c1C2=O)C[C@@](O)(C(=O)CO)C[C@@H]3O[C@H]1C[C@H](NC(=O)[C@H](CC(C)C)NC(=O)[C@H](C)NC(=O)[C@H](CC(C)C)NC(=O)CCNC(=O)CCC(=O)O)[C@H](O)[C@H](C)O1; system = mouse, E0771 tumour-bearing, heart; setting = intravenous, 92 µmol/kg; endpoint = terminal half-life; value = 30 min
Substance = CN[C@@](C)(C[18F])C(=O)O; target or system = MDA-MB-468 tumour model; system = host not given, pancreas; setting = 30 min, tumour-bearing; endpoint = tracer uptake; value = 38 %ID/g

Some of these lines once more:
Substance = B1 (enzyme); target or system = [H][C@]12SCC(COC(C)=O)=C(C(=O)O)N1C(=O)[C@H]2NC(=O)CCC[C@@H](N)C(=O)O; test = steady-state kinetics; setting = pH 7; endpoint = kcat; value = 0.093 ± 0.003 s⁻¹
Substance = melittin; test = isothermal titration calorimetry; system = POPC/POPG LUVs 75:25%; setting = 100 µM, pH 7.0, 25 °C; endpoint = partitioning enthalpy; value = -2.7 kcal/mol
